Published values of several laboratories.
Parts stem from different laboratories: compare values within a part only.

Set 1
Target: Ras GTPase-activating protein-binding protein 1, RRM domain (G3BP1, Homo sapiens, UniProt Q13283)
Chain of UniProt Q13283 (whole entry, looked up): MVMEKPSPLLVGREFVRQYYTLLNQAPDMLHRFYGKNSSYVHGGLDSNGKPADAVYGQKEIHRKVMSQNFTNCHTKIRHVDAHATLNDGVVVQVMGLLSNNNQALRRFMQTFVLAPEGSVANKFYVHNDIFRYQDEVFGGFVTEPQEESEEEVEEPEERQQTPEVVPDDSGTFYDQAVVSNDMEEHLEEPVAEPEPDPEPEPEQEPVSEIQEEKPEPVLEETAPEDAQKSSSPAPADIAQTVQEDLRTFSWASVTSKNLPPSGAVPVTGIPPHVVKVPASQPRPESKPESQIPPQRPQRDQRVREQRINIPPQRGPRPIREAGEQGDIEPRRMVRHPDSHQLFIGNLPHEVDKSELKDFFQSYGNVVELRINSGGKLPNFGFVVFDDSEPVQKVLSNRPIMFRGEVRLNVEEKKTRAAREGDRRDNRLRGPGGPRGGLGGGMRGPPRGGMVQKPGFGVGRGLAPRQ
Method: RNA Bind-n-Seq
Form: RNA
Medium: in vitro
Tested at: 1 µM
Setting: whole 134-nt RNA, ends assumed
With: 150 mM KCl
Relative to: input library
Reading: higher = stronger binding
Constant ends, left off below: GGGAGUUCUACAGUCCGACGAUC … UGGAAUUCUCGGGUGUCAAGG
Strand	log2 enrichment
ACCAUGCAGGUGGGCAUCUUUGGGAAGUGGGGCAAGGGGGGGAUAGGGAGGGGGGUAACACUUUGGGAAUAGGUGGUCCCAGGUCGUUUC	0.655
UCAAGUCCUGUGCUACACAUCGUAUGUACCGAAUCGGGUUGGGGUUGGGUUGGGGAAAGUAUUAUGUUACGCCGUUCGGAUCUGCACUUC	1.04
UAACUUUAGAGGAGGAUCUGAUGGAUAUGGCAGUGGACGUGGAUUUAGGGAUGGCUAUAAUGGGUAUGGAGGAGGACCUGGAGGUGGCAA	-0.752
UCCUGUGCUACACAUCGUAUGUACCGAAUCGGGCCCCCCGGGCCCCCCGGGCCCCCCGGGAAAGUAUUAUGUUACGCCGUUCGGAUCUGC	-0.457
UUUAGCCUGUGGAAUGAUAGCAGUAGGGUCCUGCAAUGGAGAUGUAACUUCCACUAUCCUUCAGACCAUCAUGGAGAAGUCAGAGACUGA	-0.128
CCUCAAGUCCUGUGCUACACAUCGUAUGUACCGAAUCGGGGUGGGGUGGGUGGAAAGUAUUAUGUUACGCCGUUCGGAUCUGCACUUCCA	0.186
UCCUGUGCUACACAUCGUAUGUACCGAAUCGGGAAAAAGGGGAAAAAGGGGAAAAAGGGGAAAGUAUUAUGUUACGCCGUUCGGAUCUGC	0.171
UGGGAGGUGGAUUUUGUUUAUUUUUUUAGCUCAUUUCCAGGGGGGGGAAUUUUUUUUUAAUAUGUGUCAUGAAUAAAGUUGUUUUUGAAA	1.57
CAAGUCCUGUGCUACACAUCGUAUGUACCGAAUCGGAGGAAAAAGGAAAAAAAGGAAAGUAUUAUGUUACGCCGUUCGGAUCUGCACUUC	-0.0326
UCAAGUCCUGUGCUACACAUCGUAUGUACCGAAUCGGGGUUGGGGUUGGUUGGGAAAGUAUUAUGUUACGCCGUUCGGAUCUGCACUUCC	-0.124
AGUCCUGUGCUACACAUCGUAUGUACCGAAUCGGGGUUUUGGGGUUUUGGGGUUUUGGAAAGUAUUAUGUUACGCCGUUCGGAUCUGCAC	-0.226
CCUGUGCUACACAUCGUAUGUACCGAAUCGGGGAAAAAAAGGAAAAAAAGGAAAAAAAGGGAAAGUAUUAUGUUACGCCGUUCGGAUCUG	0.101
UUAAGAAUUUGCUUAAAGAAGUGCGGAUCUAUGCACAGAAAUUUAUUGAUCGAGGAAAGGAUUUUAACUUGGAGUUGGCAAUUAAAACAC	0.0876
CACAGACAACACGCACCCACACAGACACAGAGGGAAGGGGUUGGGAUCGGGACAGGGUGCACAGCAGGGCGGGGUAGGACCCCAGCCCCU	-0.0452

Set 2
Target: Sal-like protein 4, full length isoform A (SALL4, Homo sapiens, UniProt Q9UJQ4, residues 1-1053)
Chain of UniProt Q9UJQ4 (whole entry, looked up): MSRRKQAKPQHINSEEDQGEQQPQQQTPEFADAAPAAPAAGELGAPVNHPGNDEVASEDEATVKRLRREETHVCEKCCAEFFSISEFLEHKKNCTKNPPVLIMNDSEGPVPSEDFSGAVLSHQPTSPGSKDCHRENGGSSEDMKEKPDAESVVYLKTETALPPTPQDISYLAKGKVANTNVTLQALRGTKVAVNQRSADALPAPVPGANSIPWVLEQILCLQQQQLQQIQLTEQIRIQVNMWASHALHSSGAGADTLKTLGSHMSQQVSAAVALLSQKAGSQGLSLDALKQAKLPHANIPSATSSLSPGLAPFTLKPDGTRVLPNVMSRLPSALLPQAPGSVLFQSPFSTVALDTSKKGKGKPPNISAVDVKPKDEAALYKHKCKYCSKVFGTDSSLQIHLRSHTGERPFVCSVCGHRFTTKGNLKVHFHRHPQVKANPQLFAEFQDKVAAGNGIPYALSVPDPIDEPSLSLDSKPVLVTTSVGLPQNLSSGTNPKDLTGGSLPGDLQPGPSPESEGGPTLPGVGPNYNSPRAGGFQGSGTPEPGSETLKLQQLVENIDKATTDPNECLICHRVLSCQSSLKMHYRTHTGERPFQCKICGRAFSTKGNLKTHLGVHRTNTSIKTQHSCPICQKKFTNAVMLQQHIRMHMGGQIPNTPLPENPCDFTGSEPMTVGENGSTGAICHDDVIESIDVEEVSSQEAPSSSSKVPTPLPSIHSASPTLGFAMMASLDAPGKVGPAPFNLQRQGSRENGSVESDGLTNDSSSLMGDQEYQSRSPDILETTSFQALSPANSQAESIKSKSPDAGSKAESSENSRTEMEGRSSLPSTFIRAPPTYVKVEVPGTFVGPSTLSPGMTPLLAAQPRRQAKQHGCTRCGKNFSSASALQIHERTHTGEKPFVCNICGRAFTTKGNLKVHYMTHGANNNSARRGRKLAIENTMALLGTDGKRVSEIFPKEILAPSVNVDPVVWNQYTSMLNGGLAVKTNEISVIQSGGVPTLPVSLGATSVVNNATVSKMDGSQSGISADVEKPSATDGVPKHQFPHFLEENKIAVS
Method: universal PBM
Form: double-stranded DNA, one strand shown
Medium: in vitro
Tested at: 600 nM
Setting: 8-mer, flanks averaged, mean of replicates
Reading: higher = stronger binding
Strand	E-score
AATTGTGC	0.151
CATTACCG	0.0244
CCTAGATC	-0.0943
ATGGGCGC	-0.328
GTACTTCA	0.178
AACCAGGA	-0.0899
AGTCAGCC	-0.225
AAGGCACA	0.0649
TGCCTTAA	0.00281
AATTGTTG	0.197
CCACCACG	-0.0758
CCTACGCC	-0.279
CAAGCAGC	-0.124
GTGCAAGA	-0.00159
ACCACGCA	-0.113
GAAAGGGC	-0.108
TACTTGGA	0.171
GCCTACAA	0.0125
CCCGAGCA	-0.115
AGGCTCGG	-0.17
GCGTCCAC	-0.303

Set 3
Target: TAR DNA-binding protein 43, full length, His tag (TARDBP, Homo sapiens, UniProt Q13148, residues 1-414)
Method: RNA Bind-n-Seq
Form: RNA
Medium: in vitro
Tested at: 20 nM
Setting: 6-mer, flanks averaged, single round
With: 150 mM LiCl
Relative to: input library
Reading: higher = stronger binding
Strand	6-mer enrichment (R)
ACGGGU	0.981
GCUAGC	0.909
GCCCCC	1.41
ACCUAU	0.907
UUAUUA	1.13
UUGGGU	1.29
AGUCAG	0.877
GGCUAU	0.946
UCCAGA	0.846
UUCCAU	0.925
AAUGCG	1.02
GGACGG	1.14
CCCACA	0.98
GAGAUA	0.931
CUCAAC	0.814
AGUUUC	0.934
CGGCCG	0.944
CACAUC	0.845
AAUCUC	0.831
GUGGAA	1.15
CCUACG	0.857
CGAUGA	0.872
CCCUGU	1.11
GUGACC	0.962
AAACGA	0.764

Set 4
Target: Interferon regulatory factor 5, full length, phosphomimetic (IRF5, Homo sapiens, UniProt Q13568-2, residues 1-514, K96S/S451D/S453D/S456D/S462D)
Method: protein-binding microarray
Form: double-stranded DNA, one strand shown
Medium: in vitro
Tested at: 250 nM
Setting: 60-bp whole probe
With: salmon DNA 0.4 mg/ml
Relative to: random background probes
Reading: higher = stronger binding
Constant ends, left off below: GCCTAGCAC … GTCTTGATTCGCTTGACGCTGCTG
Strand	log fluorescence [z-score]
AAGGATTTCAGTTTCTCTTTGTGCTAG	3.9
TTAGGTATCGACTTTGGGTTAGTGCTA	2.53
TTAGGACGGGGGACTGGGTTAGTGCTA	0.941
GACGGACCGGGTATCGGGACGTGCTAG	0.0851
TTTGCTTTCTTTTATGCTCTGTGCTAG	2.87
TTAGGTTCCCTTTTCGTTTAGTGCTAG	1.81
TAAGGACTGGACTTTCGGTTAGTGCTA	9.61
TCAAGCCTCAGTCCTCACACTGTGCTA	-0.421
GACGGTTTCGGTTTAGGGACGTGCTAG	9.49
TCACTTCCCAATTCTCTTACTGTGCTA	0.735
TTAAGTCTCGGACTGGGTTAGTGCTAG	0.0698
TTAGGTTTCCTCTTCCTTTAGTGCTAG	0.7
GACGGTTACGGACTGGGGACGTGCTAG	-0.511
ATAAATATGAGACTGGGGATGTGCTAG	0.0786
ACAGAACTCAACTGTCTGCCTGTGCTA	0.016
GACTGTTTCGGGACTGGGGACGTGCTA	4.82
TTAGGTCTCATTTTCCTTTAGTGCTAG	0.832
GACGTTCTCCTACTGCTGACGTGCTAG	-0.322
TTTACTTTCTATCTCTGTTTGTGCTAG	7.21
TTAGGTATAGGACTGGGTTAGTGCTAG	-0.218
TTAGGTAACCTTTTCCTTTAGTGCTAG	0.122
GACGATTTTGGGTTTCGAGACGTGCTA	2.39
GACGGACAGGACTATCGGGACGTGCTA	0.98
GACGGTTTCGAAACTGGGGACGTGCTA	5.66
TCAATTCTCTTTTCACTACTGTGCTAG	1.84

Set 5
Target: Prothrombin, mature alpha-thrombin (F2, Homo sapiens, UniProt P00734)
Method: aptamer microarray, sandwich
Form: DNA with 2'F-ANA
Medium: in vitro
Tested at: 200 nM
Setting: whole 15-mer aptamer, many near background
With: Cy3 exosite-II aptamer, 400 nM
Reading: higher = stronger binding
Strand: GGTTGGTGTGGTTGG
Modification	mean fluorescence intensity
2'F-ANA at 3 5 6 7 8 10 11 13 15	67.6 a.u.
2'F-ANA at 1 5 6 9 11 12 14	53.2 a.u.
2'F-ANA at 4 5 9 10 11 12 13 14 15	50.3 a.u.
2'F-ANA at 2 4 8 9 10 13 14	61.3 a.u.
2'F-ANA at 1 2 5 9 10 13 14 15	49.3 a.u.
2'F-ANA at 3 7 9 10 12 14	416 a.u.
2'F-ANA at 8 9 11	524 a.u.
2'F-ANA at 2 4 6 7 8 9 10 13 14	61.1 a.u.
2'F-ANA at 4 12 13 14 15	118 a.u.
2'F-ANA at 4 5 7 8 10 13 15	56.2 a.u.
2'F-ANA at 1 2 5 6 10 12 14	44.4 a.u.
2'F-ANA at 1 2 4 5 7 8 12	113 a.u.
2'F-ANA at 1 2 3 5 6 8 12 13 14	52.2 a.u.
2'F-ANA at 6 7 8 9 10 11 12 15	174 a.u.
2'F-ANA at 1 2 3 4 7 8 10 11 13 14	50.3 a.u.
2'F-ANA at 1 2 3 4 5 7 8 11 14	43.4 a.u.
2'F-ANA at 1 5 8 10 11 12 13	47.5 a.u.
2'F-ANA at 3 5 6 7 8 9 10 13 14 15	112 a.u.
2'F-ANA at 3 4 5 7 10 11 13 14 15	50.7 a.u.
2'F-ANA at 1 2 3 4 5 8 9 11 14 15	55 a.u.
2'F-ANA at 2 3 6 9 11 13 15	563 a.u.
2'F-ANA at 1 4 5 8 10 12 13 14 15	55.4 a.u.
2'F-ANA at 1 7 8 9 14 15	67.8 a.u.
2'F-ANA at 1 5 7 9 10 12 13 14	46.8 a.u.
2'F-ANA at 4 7 8 9 12 14 15	135 a.u.

For quick reference, copied from above (set 2):
Strand	E-score
CATTACCG	0.0244
CCTAGATC	-0.0943
ATGGGCGC	-0.328
GTACTTCA	0.178
AACCAGGA	-0.0899
AGTCAGCC	-0.225
AAGGCACA	0.0649
TGCCTTAA	0.00281
AATTGTTG	0.197
CCACCACG	-0.0758
CCTACGCC	-0.279
CAAGCAGC	-0.124
GTGCAAGA	-0.00159
ACCACGCA	-0.113
GAAAGGGC	-0.108
TACTTGGA	0.171
GCCTACAA	0.0125
CCCGAGCA	-0.115
